Measured values of several laboratories.
± gives the spread as reported.
Cell line: human cells

SMILES	observed	time	CC50
CNC(=O)c1cc(Oc2ccc3nc(N[C@@H]4CCCC[C@H]4O)sc3c2)ccn1			> 20 µM
CCCCCCCCCCCCCCCCOCCCOP(=O)(O)CO[C@H](CO)Cn1ccc(N)nc1=O		3 (unit not given)	7.42 ± 2.58 µM
CCCCCCNC(=O)n1cc(F)c(=O)[nH]c1=O	cytotoxicity	48 (unit not given)	4 µM
O=C(Nc1ccc(F)cc1F)C(NC(=S)Nc1cc(C(F)(F)F)cc(C(F)(F)F)c1)c1ccccc1 (stereo not shown)			9.76 µM
O=C(NN1C(=O)C2C3C=CC(C4CC34)C2C1=O)c1ccc(C(F)(F)F)cc1 (stereo not shown)		3 (unit not given)	> 106 µM
CCCCCCCCCCCCCCCC[n+]1ccn(Cc2ccccc2)c1C			5.2 µM
O=c1sn(-c2cccc3ccccc23)c(=O)n1Cc1ccccc1	cytotoxicity	48 (unit not given)	35 µM
N#Cc1c(Nc2ccc(F)cc2)n[nH]c1NS(=O)(=O)c1ccc2ccccc2c1			7.7 µM
CC(C)=CC[C@@H](O)C1=CC(=O)c2c(O)ccc(O)c2C1=O	cytotoxicity	48 (unit not given)	0.7 µM
CO[C@H]1/C=C/O[C@@]2(C)Oc3c(C)c(O)c4c(O)c(c(/C=N/N5CCN(C6CCCC6)CC5)c(O)c4c3C2=O)NC(=O)/C(C)=C\C=C\[C@H](C)[C@H](O)[C@@H](C)[C@@H](O)[C@@H](C)[C@H](OC(C)=O)[C@@H]1C			138 µM

Some of these lines once more:
SMILES	observed	time	CC50
CNC(=O)c1cc(Oc2ccc3nc(N[C@@H]4CCCC[C@H]4O)sc3c2)ccn1			> 20 µM
CCCCCCCCCCCCCCCCOCCCOP(=O)(O)CO[C@H](CO)Cn1ccc(N)nc1=O		3 (unit not given)	7.42 ± 2.58 µM
